Measured values of several laboratories.
Parts stem from different laboratories: compare values within a part only.

Study 1
Target: Replicase polyprotein 1ab, polymerase (rep, Severe acute respiratory syndrome coronavirus 2, UniProt P0DTD1)
Effect on: enzyme activity
Action: inhibitor
Concentration: 20 µM
`O=c1cc(N2CCOCC2)oc2c(-c3ccccc3)cccc12` has an inhibition of 7.85%.
The inhibition of `CN(C)/C=N/c1c(I)cc(I)c(CCC(=O)O)c1I` is reported as -0.88%.
With `CC(C)(C)NCC(O)COc1cccc2c1CCC(=O)N2` (stereo not shown) the inhibition was 3.34%.
`CC(C)Oc1cccc(CC(=O)N2CCC[C@](CC[N+]34CCC(c5ccccc5)(CC3)CC4)(c3ccc(Cl)c(Cl)c3)C2)c1` has an inhibition of 0.94%.
With `Cc1cc(C(=O)N2Cc3cnn(C)c3Nc3ccccc32)ccc1CNC(=O)N1CCC[C@H]1C(=S)N1CCCN(C)CC1` the inhibition was -0.77%.
For `C[C@H](Nc1ncnc2[nH]cnc12)c1nc2ccc(F)cc2c(=O)n1-c1ccccc1`, the inhibition was -5.48%.
`O=C(O)c1ccccc1Nc1cccc(C(F)(F)F)c1` gave an inhibition of 31.4%.
The inhibition of `CS(=O)(=O)c1ccc(-c2cn3ccccc3n2)cc1` is reported as -0.36%.
For `CCCCCCCCCCCCCCCC(=O)OC(CC(=O)[O-])C[N+](C)(C)C` (stereo not shown), the inhibition was -3.54%.
`O=C(Nc1cc(Oc2cc(F)c(NC(=O)C3(C(=O)Nc4ccc(F)cc4)CC3)cc2F)ccn1)C1CC1` has an inhibition of -0.07%.
`COc1cc2c(cc1C(F)(F)F)N(C(=O)Nc1cc(F)cc(-c3cccnc3)c1)CC2` gave an inhibition of -3.6%.
With `Cc1ncc[nH]1` the inhibition was -2.17%.
The inhibition of `CC[C@H]1OC(=O)[C@H](C)C(=O)[C@H](C)[C@@H](O[C@@H]2O[C@H](C)C[C@H](N(C)C)[C@H]2O)[C@](C)(OC)C[C@@H](C)C(=O)[C@H](C)[C@H]2N(CCCCn3cnc(-c4cccnc4)c3)C(=O)O[C@]12C` is reported as -3.09%.
The inhibition of `Clc1ccc(CCC(Cn2ccnc2)Sc2c(Cl)cccc2Cl)cc1` (stereo not shown) is reported as -4.59%.

Study 2
Target: Histone acetyltransferase KAT6A, both winged helices, GST fusion (KAT6A, Homo sapiens, UniProt Q92794, residues 1-181)
Method: protein binding microarray
Form: double-stranded DNA, one strand shown
Medium: in vitro
Concentration: not given
Setting: 8-mer, flanks averaged, mean of 2 arrays, mostly near background
Relative to: not given
Reading: higher = stronger binding
Target sequence (chain): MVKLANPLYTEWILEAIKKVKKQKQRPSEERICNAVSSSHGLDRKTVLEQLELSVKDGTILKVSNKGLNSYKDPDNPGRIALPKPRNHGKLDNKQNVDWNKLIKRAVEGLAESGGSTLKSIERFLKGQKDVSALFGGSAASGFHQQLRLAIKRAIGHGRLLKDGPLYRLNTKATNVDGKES
For `CTATCTCA`, the E-score was -0.22.
`CACCGCAC` has an E-score of 0.122.
`GTCTGGCA` gave an E-score of -0.204.
For `CAAAACCG`, the E-score was 0.105.
For `AATACTAA`, the E-score was -0.0419.
The E-score of `ACTTCGAC` is reported as -0.00579.
`CGAAACTA` gave an E-score of 0.0354.
With `AACTTAAG` the E-score was -0.00023.

Study 3
Target: Interferon regulatory factor 7, full length, phosphomimetic (IRF7, Homo sapiens, UniProt Q92985, residues 1-503, S471D/S472D/S475D/S476D/S477D/S483D/S484D/S487D)
Method: protein-binding microarray
Form: double-stranded DNA, one strand shown
Medium: in vitro
Concentration: 2200 nM top
Setting: 60-bp whole probe
Added: salmon DNA 0.4 mg/ml
Relative to: random background probes
Reading: higher = stronger binding
All sequences stand within: GCCTAGCAC … GTCTTGATTCGCTTGACGCTGCTG
Construct (chain): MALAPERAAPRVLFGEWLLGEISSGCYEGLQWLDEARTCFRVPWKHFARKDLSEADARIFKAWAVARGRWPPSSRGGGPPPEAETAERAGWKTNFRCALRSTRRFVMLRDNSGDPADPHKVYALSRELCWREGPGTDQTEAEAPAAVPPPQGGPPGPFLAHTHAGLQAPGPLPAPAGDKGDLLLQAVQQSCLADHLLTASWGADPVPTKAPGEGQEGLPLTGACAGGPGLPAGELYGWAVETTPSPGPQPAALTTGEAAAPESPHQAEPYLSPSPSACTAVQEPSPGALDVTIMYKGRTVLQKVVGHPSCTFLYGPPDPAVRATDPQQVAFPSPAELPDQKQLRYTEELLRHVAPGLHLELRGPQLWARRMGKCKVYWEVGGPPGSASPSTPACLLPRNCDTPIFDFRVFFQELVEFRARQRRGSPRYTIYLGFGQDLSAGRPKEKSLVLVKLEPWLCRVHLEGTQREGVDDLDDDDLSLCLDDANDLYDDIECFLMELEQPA
`GACGGACTGCGGTATCGGGACGTGCTA`: “fitted relative affinity” -0.772 z-score.
`GACGGACTGTGGACTGGGGACGTGCTA`: “fitted relative affinity” -0.694 z-score.
For `AATATTCTGCTTTGCAATAAGTGCTAG`, “fitted relative affinity” read 0.59 z-score.
`TTAGATATCGGGACTGGATGAGTGCTA` — result for “fitted relative affinity”: -0.359 z-score.
`TCATGTTTGTCCCTATTACTGTGCTAG`: “fitted relative affinity” 2.68 z-score.

Other studies, line by line
With `CN1Cc2ccccc2[C@@H]2c3cccc4[nH]cc(c34)C[C@H]21` the inhibition was 8.3% (SARS-CoV-2; cytopathic effect; Vero E6; 10 µM).

For quick reference, copied from above (study 1):
For `C[C@H](Nc1ncnc2[nH]cnc12)c1nc2ccc(F)cc2c(=O)n1-c1ccccc1`, the inhibition was -5.48%.
`O=C(O)c1ccccc1Nc1cccc(C(F)(F)F)c1` gave an inhibition of 31.4%.
